# Assay results of several laboratories.
# Parts stem from different laboratories: compare values within a part only.
# Chain of UniProt P54646 (whole entry, looked up): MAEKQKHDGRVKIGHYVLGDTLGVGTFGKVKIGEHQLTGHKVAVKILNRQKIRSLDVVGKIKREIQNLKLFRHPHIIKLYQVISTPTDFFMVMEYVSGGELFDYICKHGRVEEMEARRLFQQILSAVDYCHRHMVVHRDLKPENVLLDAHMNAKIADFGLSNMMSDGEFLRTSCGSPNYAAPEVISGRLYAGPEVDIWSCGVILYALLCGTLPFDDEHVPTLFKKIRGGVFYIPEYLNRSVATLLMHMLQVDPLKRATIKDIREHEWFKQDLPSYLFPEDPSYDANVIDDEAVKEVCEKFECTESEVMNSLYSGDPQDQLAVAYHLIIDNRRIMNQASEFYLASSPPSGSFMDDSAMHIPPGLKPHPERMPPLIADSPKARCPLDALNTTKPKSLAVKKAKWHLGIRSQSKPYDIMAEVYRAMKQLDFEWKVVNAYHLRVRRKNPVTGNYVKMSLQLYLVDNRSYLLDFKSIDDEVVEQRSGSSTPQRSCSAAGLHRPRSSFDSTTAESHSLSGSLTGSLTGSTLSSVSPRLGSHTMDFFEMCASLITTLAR
# Chain of UniProt P35626 (whole entry, looked up): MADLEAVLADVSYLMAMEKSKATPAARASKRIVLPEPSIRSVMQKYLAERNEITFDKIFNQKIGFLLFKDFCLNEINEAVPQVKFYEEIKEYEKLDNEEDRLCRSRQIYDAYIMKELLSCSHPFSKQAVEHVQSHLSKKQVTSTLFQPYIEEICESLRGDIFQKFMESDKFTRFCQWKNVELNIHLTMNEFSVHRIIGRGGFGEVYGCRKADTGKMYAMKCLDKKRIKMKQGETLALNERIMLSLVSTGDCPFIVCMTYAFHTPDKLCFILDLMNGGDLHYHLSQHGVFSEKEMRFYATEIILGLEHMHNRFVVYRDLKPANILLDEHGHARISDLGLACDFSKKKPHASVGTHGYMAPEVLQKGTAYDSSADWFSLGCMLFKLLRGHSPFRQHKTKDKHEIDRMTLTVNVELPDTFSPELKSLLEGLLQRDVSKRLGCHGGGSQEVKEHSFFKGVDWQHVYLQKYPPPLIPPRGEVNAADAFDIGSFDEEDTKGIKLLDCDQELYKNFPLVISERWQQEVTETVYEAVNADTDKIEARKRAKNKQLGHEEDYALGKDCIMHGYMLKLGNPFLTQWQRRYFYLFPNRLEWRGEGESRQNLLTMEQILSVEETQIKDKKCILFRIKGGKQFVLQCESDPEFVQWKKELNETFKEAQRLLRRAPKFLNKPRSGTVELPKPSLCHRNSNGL
# Chain of UniProt P80192 (whole entry, looked up): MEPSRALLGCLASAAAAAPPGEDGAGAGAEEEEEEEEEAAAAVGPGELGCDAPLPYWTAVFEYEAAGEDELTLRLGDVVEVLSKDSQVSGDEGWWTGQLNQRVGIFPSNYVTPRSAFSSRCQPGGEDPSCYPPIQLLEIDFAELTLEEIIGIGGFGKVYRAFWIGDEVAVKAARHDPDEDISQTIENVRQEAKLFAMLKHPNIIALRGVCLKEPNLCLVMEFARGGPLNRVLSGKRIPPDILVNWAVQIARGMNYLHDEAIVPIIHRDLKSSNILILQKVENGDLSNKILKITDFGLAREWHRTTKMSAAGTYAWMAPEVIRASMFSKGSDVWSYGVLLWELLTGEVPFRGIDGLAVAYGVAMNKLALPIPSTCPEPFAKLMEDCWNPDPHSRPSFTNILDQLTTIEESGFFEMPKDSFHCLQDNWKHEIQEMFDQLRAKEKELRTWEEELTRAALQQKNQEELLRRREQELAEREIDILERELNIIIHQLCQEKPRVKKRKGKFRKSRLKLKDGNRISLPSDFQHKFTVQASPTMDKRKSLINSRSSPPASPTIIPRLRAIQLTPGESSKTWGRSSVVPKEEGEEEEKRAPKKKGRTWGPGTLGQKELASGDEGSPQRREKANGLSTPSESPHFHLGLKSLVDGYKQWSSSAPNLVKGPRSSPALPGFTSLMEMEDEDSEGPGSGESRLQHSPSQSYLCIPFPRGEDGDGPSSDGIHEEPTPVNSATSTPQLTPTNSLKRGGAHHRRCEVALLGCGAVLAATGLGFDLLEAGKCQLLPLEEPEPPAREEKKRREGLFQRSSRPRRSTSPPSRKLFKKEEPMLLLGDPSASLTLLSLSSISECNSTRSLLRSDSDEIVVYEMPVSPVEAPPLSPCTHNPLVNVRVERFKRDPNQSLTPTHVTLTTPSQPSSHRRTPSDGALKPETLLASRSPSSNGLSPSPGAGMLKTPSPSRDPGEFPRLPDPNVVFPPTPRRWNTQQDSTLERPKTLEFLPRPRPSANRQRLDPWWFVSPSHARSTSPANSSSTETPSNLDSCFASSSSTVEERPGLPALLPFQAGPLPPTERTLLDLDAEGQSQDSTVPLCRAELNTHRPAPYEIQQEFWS
# Chain of UniProt Q08881 (whole entry, looked up): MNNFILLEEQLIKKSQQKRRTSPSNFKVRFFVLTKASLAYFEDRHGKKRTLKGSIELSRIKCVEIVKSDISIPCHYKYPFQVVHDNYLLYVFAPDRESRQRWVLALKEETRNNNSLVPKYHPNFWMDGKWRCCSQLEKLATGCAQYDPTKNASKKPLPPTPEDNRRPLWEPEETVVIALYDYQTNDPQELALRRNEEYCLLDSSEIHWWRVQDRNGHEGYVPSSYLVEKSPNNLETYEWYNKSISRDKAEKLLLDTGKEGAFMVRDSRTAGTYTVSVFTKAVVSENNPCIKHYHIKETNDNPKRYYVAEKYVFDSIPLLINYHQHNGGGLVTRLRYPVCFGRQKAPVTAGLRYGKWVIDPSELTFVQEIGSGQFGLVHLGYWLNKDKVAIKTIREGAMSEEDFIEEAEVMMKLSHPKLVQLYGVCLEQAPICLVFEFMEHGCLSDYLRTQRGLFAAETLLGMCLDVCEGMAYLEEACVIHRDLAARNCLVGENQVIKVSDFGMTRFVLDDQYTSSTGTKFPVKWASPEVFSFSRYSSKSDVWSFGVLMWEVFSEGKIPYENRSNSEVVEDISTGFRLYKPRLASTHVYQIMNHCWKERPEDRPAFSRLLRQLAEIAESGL
# Chain of UniProt Q96D53 (whole entry, looked up): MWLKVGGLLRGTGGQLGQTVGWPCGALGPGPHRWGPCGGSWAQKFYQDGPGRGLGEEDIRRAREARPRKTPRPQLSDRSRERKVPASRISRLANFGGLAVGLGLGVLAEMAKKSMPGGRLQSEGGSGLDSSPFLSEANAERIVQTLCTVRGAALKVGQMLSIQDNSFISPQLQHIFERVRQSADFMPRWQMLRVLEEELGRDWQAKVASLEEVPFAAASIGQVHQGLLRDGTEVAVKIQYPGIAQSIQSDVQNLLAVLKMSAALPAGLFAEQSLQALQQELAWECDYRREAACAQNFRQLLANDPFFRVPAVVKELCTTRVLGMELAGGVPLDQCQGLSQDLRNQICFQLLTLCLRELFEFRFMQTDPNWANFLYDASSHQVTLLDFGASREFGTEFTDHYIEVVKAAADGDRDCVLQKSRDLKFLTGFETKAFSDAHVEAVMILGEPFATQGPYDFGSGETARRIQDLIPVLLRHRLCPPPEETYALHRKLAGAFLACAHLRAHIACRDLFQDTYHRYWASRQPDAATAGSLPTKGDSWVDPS
# Chain of UniProt P27448 (whole entry, looked up): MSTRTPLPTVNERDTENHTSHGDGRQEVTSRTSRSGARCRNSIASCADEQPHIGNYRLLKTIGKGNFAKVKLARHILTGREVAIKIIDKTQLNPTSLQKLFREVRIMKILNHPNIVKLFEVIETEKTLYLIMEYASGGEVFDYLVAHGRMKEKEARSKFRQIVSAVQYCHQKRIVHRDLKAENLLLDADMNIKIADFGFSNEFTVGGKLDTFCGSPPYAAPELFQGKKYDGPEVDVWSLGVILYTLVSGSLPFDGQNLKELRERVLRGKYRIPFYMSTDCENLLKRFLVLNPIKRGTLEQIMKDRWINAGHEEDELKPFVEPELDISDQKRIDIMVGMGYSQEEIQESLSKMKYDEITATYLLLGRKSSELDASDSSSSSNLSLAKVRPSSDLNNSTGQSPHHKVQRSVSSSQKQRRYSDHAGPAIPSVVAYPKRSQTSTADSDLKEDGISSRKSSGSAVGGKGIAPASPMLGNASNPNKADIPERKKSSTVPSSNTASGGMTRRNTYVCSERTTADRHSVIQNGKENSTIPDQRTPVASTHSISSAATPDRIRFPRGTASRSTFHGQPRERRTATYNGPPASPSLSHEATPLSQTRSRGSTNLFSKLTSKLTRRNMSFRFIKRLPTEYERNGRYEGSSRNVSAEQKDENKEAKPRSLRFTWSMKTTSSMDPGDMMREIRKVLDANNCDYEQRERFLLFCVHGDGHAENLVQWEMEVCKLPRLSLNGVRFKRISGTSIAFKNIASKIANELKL
# Chain of UniProt P49761 (whole entry, looked up): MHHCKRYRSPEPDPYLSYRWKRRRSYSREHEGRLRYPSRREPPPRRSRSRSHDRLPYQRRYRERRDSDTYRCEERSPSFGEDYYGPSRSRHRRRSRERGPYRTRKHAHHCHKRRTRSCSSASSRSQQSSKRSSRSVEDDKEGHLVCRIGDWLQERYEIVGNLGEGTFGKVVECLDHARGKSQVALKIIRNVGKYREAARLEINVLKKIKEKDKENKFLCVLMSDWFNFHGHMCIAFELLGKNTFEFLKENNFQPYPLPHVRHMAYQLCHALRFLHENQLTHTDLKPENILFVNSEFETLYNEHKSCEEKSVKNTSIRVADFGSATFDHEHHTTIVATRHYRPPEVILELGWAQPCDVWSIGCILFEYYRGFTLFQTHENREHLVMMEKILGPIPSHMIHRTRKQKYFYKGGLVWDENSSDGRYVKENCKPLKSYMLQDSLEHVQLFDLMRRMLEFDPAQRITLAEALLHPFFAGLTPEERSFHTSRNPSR

# Sample 1 — cell line: mouse MPNST tumor cells; technique: high-content nuclear imaging; measured: cell number; concentration: 10 µM; time: 12 h; setting: mean of 2 replicates; reference: plate mean; reading: higher = more cells
Structure (SMILES),nuclei count [z-score]
NC(=O)c1cn(Cc2c(F)cccc2F)nn1,4.17
CC(=O)N[C@@H](CS)C(=O)O,0.536
Nc1cc(-c2ccncc2)c[nH]c1=O,1.92
O=C(Nc1c(-c2cccs2)nc2ccccn12)c1ccc(Cl)cc1,2.17

# Sample 2 — host: human; matrix: microsomes or S9; concentration: 2 µM; time: 0.5 h
Compound,remaining compound [%]
CN(C)S(=O)(=O)N1CCN(Cc2c(O)occ(CN3CCOCC3)c2=O)CC1,93.4
COC(=O)C1C(C(=O)OC)C2(OC(c3ccccc3)=CC2=O)C12OC(c1ccccc1)=CC2=O (centres unmarked),22
COc1ccc(CNc2ccc(C(=O)N3CCN(Cc4ccc(OC)c(OC)c4OC)CC3)cc2S(=O)(=O)Nc2cccc(OC)c2)cc1,22.7

# Sample 3 — technique: competition with immobilised ligand; concentration: 1 µM
# Compound: N#CC1(c2ccccn2)CCN(Cc2cc(C(=O)N3CCCC3)c(=O)n3ccccc23)CC1
target,effect on,remaining binding
"MARK2 (Homo sapiens, UniProt Q7KZI7)",cell-free assay,100%
"PRKAA2 (Homo sapiens, UniProt P54646)",cell-free assay,100%
"CLK3 (Homo sapiens, UniProt P49761)",cell-free assay,99%
"ITK (Homo sapiens, UniProt Q08881)",cell-free assay,95%
"MARK3 (Homo sapiens, UniProt P27448)",cell-free assay,87%
"MAP3K2 (Homo sapiens, UniProt Q9Y2U5)",cell-free assay,100%
"MAP2K5 (Homo sapiens, UniProt Q13163)",cell-free assay,100%
"GRK3 (Homo sapiens, UniProt P35626)",cell-free assay,77%
"Tyrosine-protein kinase ABL1, phosphorylated (ABL1, Homo sapiens, UniProt P00519, E255K)",binding,87%
"HUNK (Homo sapiens, UniProt P57058)",cell-free assay,79%
"MAP3K9 (Homo sapiens, UniProt P80192)",cell-free assay,72%
"CDK3 (Homo sapiens, UniProt Q00526)",cell-free assay,79%
"COQ8B (Homo sapiens, UniProt Q96D53)",cell-free assay,100%

# Sample 4 — organism: Plasmodium berghei; mode: inhibitor; cell line: Huh-7; strain: liver stage; concentration: 10 µM; time: 24 h; reference: untreated control
Structure (SMILES),infection rate [%]
COC(=O)Nc1nc2cc(Sc3ccccc3)ccc2[nH]1,98.3
C[N+]1(C)[C@@H]2CC[C@H]1C[C@@H](OC(=O)C(O)c1ccccc1)C2 (some centres unmarked),83.4
CC(=O)OCC(=O)[C@@]12OC(C)(C)O[C@@H]1C[C@H]1[C@@H]3C[C@H](F)C4=CC(=O)C=C[C@]4(C)[C@@]3(F)[C@@H](O)C[C@@]12C,83.6

# Other studies, line by line
Structure (SMILES),target or system,test system,setting,endpoint,value
C=CCc1cc(OC)c(O)c(C(=O)NCCO)c1,HaCaT,,"100 µM, 18 h",viability,117%
CC(C)n1cnc(-c2ccc(F)cc2)c1-c1ncc(C(=O)Nc2ccc(N3CCN(C)CC3)cc2)[nH]1,,IPF patients,"30 mg once daily, adverse event",Gastritis incidence,0%
O=C1NC(=O)C(c2ccccc2)(c2ccccc2)N1,HaCaT,,"100 µM, 18 h",viability,99.6%

# Excerpt of the above (sample 1):
Structure (SMILES),nuclei count [z-score]
CC(=O)N[C@@H](CS)C(=O)O,0.536
Nc1cc(-c2ccncc2)c[nH]c1=O,1.92
O=C(Nc1c(-c2cccs2)nc2ccccn12)c1ccc(Cl)cc1,2.17
